Experimental data collected from several papers.
Compare with care: the assays were run in different laboratories.
Target: SNF-related serine/threonine-protein kinase (SNRK, Homo sapiens, UniProt Q9NRH2)

With `C=CC(=O)N1CCCC(n2c(=O)c3ncccc3n(Cc3ccc(Oc4ccccc4)cc3)c2=O)C1` (centres unmarked) the remaining binding was 89% (cell-free assay, competition with immobilised ligand; 1 µM).
The remaining binding of `CNC1C[S+]2CC[S+]3CC[S+](C1)[Ru-4]321([N]=C=S)[n]2c3ccc(OC)cc3c3c4c(c5cc(F)c[n+]1c5c32)C(=O)NC4=O` (centres unmarked) is reported as 96% (KinomeScan; 0.1 µM; relative to: untreated).
With `CNC(=O)C1CCN(c2cc(C)c(F)cc2NC(=O)c2ccc(-c3cc(O)ccc3C)c(C)c2)CC1` the remaining binding was 100% (binding, competition with immobilised ligand; 1 µM).
For `CNC(=O)C[C@H](Cc1ccc(C#N)cc1)NC(=O)c1cc(-c2ccc(CN[C@H](C)c3ccc(C)cc3)o2)ccc1Cl`, “activity vs control” read 121% (enzyme activity, inhibitor; 1 µM).
With `CS(=O)(=O)Nc1cccc(-c2csc3cnc(Nc4ccc(N5CCN(CCCCCOc6cccc7c6C(=O)N(C6CCC(=O)NC6=O)C7=O)CC5)cc4)nc23)c1` (centres unmarked) the inhibition was -39.2% (probe labelling, inhibitor, KiNativ chemoproteomics; MOLT-4; 1 µM).
The remaining binding of `C=CC(=O)N1CCc2ccc(-n3c(=O)ccc4cnc5ccc(-c6cnn(C)c6)cc5c43)cc21` is reported as 100% (KINOMEscan; 1 µM; relative to: DMSO control).
With `CCN1CCN(Cc2ccc(C(=O)Nc3ccc(C)c(NCc4cnc5[nH]ccc5c4OC)c3)cc2C(F)(F)F)CC1` the remaining binding was 43% (binding, competition with immobilised ligand; 1 µM).
The remaining binding of `COc1cc(Nc2nccc(-c3cnn4nc(OC)ccc34)n2)cc(C(F)(F)F)c1` is reported as 89% (binding, competition with immobilised ligand; 1 µM).
For `COc1c(Cl)cccc1Nc1c(-c2ccncc2C#C[C@@]2(C)CCCN2C(=O)/C=C/CN(C)C)[nH]c2c1C(=O)NCC2`, the remaining binding was 100% (binding, competition with immobilised ligand; 3 µM).
`Nc1ncc2c(n1)-c1c([nH]c3ccc(C4=CCOCC4)cc13)CCC2` gave a remaining binding of 100% (binding, competition with immobilised ligand; 1 µM).
With `Cc1cnc2nc1Nc1cccc(c1)COC/C=C/COCc1cc(ccc1OCCN1CCOCC1)N2` the remaining binding was 100% (binding, competition with immobilised ligand; 0.1 µM).
`Nc1ncc(-c2cc(-c3cnn(CC(F)(F)F)c3)ncc2F)nc1C(=O)NC1CNCC(F)C1` (centres unmarked) gave a remaining activity of 96.5% (enzyme activity; 1 µM; relative to: DMSO control).
For `CN1CC[C@@H](COc2cnc(C#N)cc2-c2ccn3nc(NC(=O)C4CC4)cc3c2)C1`, the inhibition was 9% (enzyme activity, inhibitor; 1 µM).
With `COc1cc(Nc2nc(C)cc(-c3cnn4nc(OC)ccc34)n2)cc(C(F)(F)F)c1` the remaining binding was 100% (binding, competition with immobilised ligand; 1 µM).
The remaining binding of `CC(C)=CC1OC(C)(C)C2C=C3C(=O)C(Cl)=CC(O)C3C3C(O)C4OC4C(=O)C132` (centres unmarked) is reported as 90% (cell-free assay, competition with immobilised ligand; 10 µM).
For `Cc1nc2c(F)cc(-c3nc(Nc4ccc(CNC(=O)CCCCCCC(=O)NO)cc4)ncc3F)cc2n1C(C)C`, the inhibition was 0% (enzyme activity, inhibitor; 1 µM).
The inhibition of `CCn1cc(C(=O)O)c(=O)c2c(N)c(F)c(NC3CCCCC3)cc21` is reported as -3.2% (kinase activity; 0.1 µM, added: ATP at Km).
Under “activity vs control”, `O=C(Cc1ccc(OCc2ccccc2)cc1)NC1(C(=O)O)CCN(C(=O)c2ccc(-c3cccc(Cl)c3)cc2)CC1` is recorded as 120% (enzyme activity, inhibitor; 10 µM).
For `Cc1ccc(-c2c(/C=C(\C#N)C(=O)NC(C)C)n(CCCO)c3ncnc(N)c23)cc1`, the remaining binding was 79% (cell-free assay, competition with immobilised ligand; 1 µM).
`Cc1ccc(C(=O)Nc2ccc(CN3CCN(C)CC3)c(C(F)(F)F)c2)cc1C#Cc1cnc2cccnn12` has an upper asymptote of 34.3 (target engagement, NanoBRET; human cells).

A few entries again:
The inhibition of `CCn1cc(C(=O)O)c(=O)c2c(N)c(F)c(NC3CCCCC3)cc21` is reported as -3.2% (kinase activity; 0.1 µM, added: ATP at Km).
`Nc1ncc2c(n1)-c1c([nH]c3ccc(C4=CCOCC4)cc13)CCC2` gave a remaining binding of 100% (binding, competition with immobilised ligand; 1 µM).
The remaining binding of `CC(C)=CC1OC(C)(C)C2C=C3C(=O)C(Cl)=CC(O)C3C3C(O)C4OC4C(=O)C132` (centres unmarked) is reported as 90% (cell-free assay, competition with immobilised ligand; 10 µM).
